Measured values gathered from unrelated publications.
Compare with care: the assays were run in different laboratories. Several values in a cell are separate wells, animals, samples, runs or records.
Target: Serine/threonine-protein kinase D3 (PRKD3, Homo sapiens, UniProt O94806)

| Structure (SMILES) | assay | setting | how to read | measurement | result |
| --- | --- | --- | --- | --- | --- |
| Cc1cccc(O[C@H]2CCC[C@@H](C(C)CNCc3ccncc3)C2)c1 (relative stereo) | enzyme activity, inhibitor | 1 µM | – | inhibition | 5% |
| C=CC(=O)N1CCc2ccc(-n3c(=O)ccc4cnc5ccc(-c6cnn(C)c6)cc5c43)cc21 | KINOMEscan | 1 µM | relative to: DMSO control | remaining binding | 100% |
| Cc1ccc(-c2c(/C=C(\C#N)C(=O)NC(C)C)n(CCCO)c3ncnc(N)c23)cc1 | cell-free assay, competition with immobilised ligand | 1 µM | – | remaining binding | 94% |
| C=CC(=O)N1Cc2nc(-c3cc(-c4cc(Cl)cnc4Cl)c(F)cc3F)n(-c3ccncn3)c2C1 | cell-free assay, inhibitor | 1 µM | – | inhibition | 16% |
| CNC(=O)C1CCN(c2cc(C)c(F)cc2NC(=O)c2ccc(-c3cc(O)ccc3C)c(C)c2)CC1 | binding, competition with immobilised ligand | 1 µM | – | remaining binding | 92% |
| C=CC(=O)Nc1cccc(-c2cnc3[nH]cc(C(=O)NC(C)(C)C)c3n2)c1 | kinase activity | 0.1 µM | – | inhibition | 10% and 12% |
| CCN1CCN(Cc2ccc(C(=O)Nc3ccc(C)c(NCc4cnc5[nH]ccc5c4OC)c3)cc2C(F)(F)F)CC1 | binding, competition with immobilised ligand | 1 µM | – | remaining binding | 72% |
| CN1CC[C@@H](COc2cnc(C#N)cc2-c2ccn3nc(NC(=O)C4CC4)cc3c2)C1 | enzyme activity, inhibitor | 1 µM | – | inhibition | -7% |
| NC(=O)C[C@H]1CCc2sc3ncnc(O[C@H]4CC[C@H](N5CCOCC5)CC4)c3c21 | enzyme activity, inhibitor | 10 µM | – | inhibition | 9% |
| C=CC(=O)N1CCCC(n2c(=O)c3ncccc3n(Cc3ccc(Oc4ccccc4)cc3)c2=O)C1 (centres unmarked) | cell-free assay, competition with immobilised ligand | 1 µM | – | remaining binding | 86% |
| COc1cc(Nc2nc(C)cc(-c3cnn4nc(OC)ccc34)n2)cc(C(F)(F)F)c1 | inhibitor | 1 µM | relative to: control | remaining activity | 100% |
| O=C(Cc1ccc(OCc2ccccc2)cc1)NC1(C(=O)O)CCN(C(=O)c2ccc(-c3cccc(Cl)c3)cc2)CC1 | enzyme activity, inhibitor | 10 µM | – | activity vs control | 121% |
| CNC1C[S+]2CC[S+]3CC[S+](C1)[Ru-4]321([N]=C=S)[n]2c3ccc(OC)cc3c3c4c(c5cc(F)c[n+]1c5c32)C(=O)NC4=O (centres unmarked) | KinomeScan | 0.1 µM | relative to: untreated | remaining binding | 81% |
| COc1c(Cl)cccc1Nc1c(-c2ccncc2C#C[C@@]2(C)CCCN2C(=O)/C=C/CN(C)C)[nH]c2c1C(=O)NCC2 | binding, competition with immobilised ligand | 3 µM | – | remaining binding | 85% |

For quick reference, copied from above:
| Structure (SMILES) | assay | setting | how to read | measurement | result |
| --- | --- | --- | --- | --- | --- |
| Cc1ccc(-c2c(/C=C(\C#N)C(=O)NC(C)C)n(CCCO)c3ncnc(N)c23)cc1 | cell-free assay, competition with immobilised ligand | 1 µM | – | remaining binding | 94% |
